Measurements from different studies.
Parts stem from different laboratories: compare values within a part only.

Study 1 — method: protein-binding microarray; molecule type: double-stranded DNA, one strand shown; medium: in vitro; tested at: 2200 nM top; setting: 60-bp whole probe; added: salmon DNA 0.4 mg/ml; reference: random background probes; direction: higher = stronger binding; shared flanks, not repeated: GCCTAGCAC … GTCTTGATTCGCTTGACGCTGCTG
Target: Interferon regulatory factor 7, full length, phosphomimetic (IRF7, Homo sapiens, UniProt Q92985, residues 1-503, S471D/S472D/S475D/S476D/S477D/S483D/S484D/S487D)
Target sequence (chain): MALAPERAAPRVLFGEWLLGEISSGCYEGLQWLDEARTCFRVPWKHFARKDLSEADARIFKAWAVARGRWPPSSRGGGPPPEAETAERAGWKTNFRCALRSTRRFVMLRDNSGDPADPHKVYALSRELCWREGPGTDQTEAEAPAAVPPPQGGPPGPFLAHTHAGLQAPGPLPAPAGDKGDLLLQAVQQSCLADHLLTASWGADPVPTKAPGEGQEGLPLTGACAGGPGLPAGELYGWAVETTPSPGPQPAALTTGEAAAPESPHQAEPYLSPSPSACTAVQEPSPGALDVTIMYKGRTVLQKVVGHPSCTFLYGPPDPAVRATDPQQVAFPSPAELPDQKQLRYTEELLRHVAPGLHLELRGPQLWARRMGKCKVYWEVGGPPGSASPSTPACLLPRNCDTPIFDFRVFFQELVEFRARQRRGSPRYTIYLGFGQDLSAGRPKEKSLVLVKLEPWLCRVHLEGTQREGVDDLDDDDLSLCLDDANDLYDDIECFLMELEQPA
| Sequence | fitted relative affinity [z-score] |
| --- | --- |
| GACGATCTAAGACTGGAGACGTGCTAG | -0.247 |
| GACGGAGTGGACTATCGGGACGTGCTA | -0.585 |
| TTAGGTATCGGGTAACGGTTAGTGCTA | 0.279 |
| GTCGGTTTCCTTTTCCTGACGTGCTAG | 7.27 |
| TCATTTTGGTTTTCTCTAACTGTGCTA | 3.08 |
| TTAGGTTTGCTTCTCCTTTAGTGCTAG | 1.63 |
| GAAGGTTTCGGTCTCGGGACGTGCTAG | 5.9 |
| CCTCCTCTAACTTTCCAATTGTGCTAG | 3.94 |
| TCTATCTGCAGACTCTCACAGTGCTAG | 1.19 |
| TTAGGTAACGGGTTTCGGTTAGTGCTA | 3.03 |
| TTAGGACTGGGTTTCGCTTAGTGCTAG | 2.15 |
| GACGGATTCCTTCTCCTGACGTGCTAG | 1.39 |
| GACGGTTTCCTTGTCCTGACGTGCTAG | 2.21 |
| GACGGTTCCCTTTTCCTGGCGTGCTAG | 2.45 |
| TTAGGTCTCGGTTGCGGTTAGTGCTAG | 1.26 |
| CCTAGTTGTACTTTCTATCTGTGCTAG | 4.28 |

Study 2 — method: RNA Bind-n-Seq; molecule type: RNA; medium: in vitro; tested at: not given; reference: input RNA pool; direction: higher = stronger binding
Target: RING finger protein unkempt homolog, zinc fingers 1-6, GST-SBP tag (UNK, Homo sapiens, UniProt Q9C0B0, residues 30-357)
Setting: RNA with constant flanks, human and mouse sites, ends assumed
Shared flanks, not repeated: GGGAGUUCUACAGUCCGACGAUC … CAACAGAGGAUUGAGCAUCA
Target sequence (chain): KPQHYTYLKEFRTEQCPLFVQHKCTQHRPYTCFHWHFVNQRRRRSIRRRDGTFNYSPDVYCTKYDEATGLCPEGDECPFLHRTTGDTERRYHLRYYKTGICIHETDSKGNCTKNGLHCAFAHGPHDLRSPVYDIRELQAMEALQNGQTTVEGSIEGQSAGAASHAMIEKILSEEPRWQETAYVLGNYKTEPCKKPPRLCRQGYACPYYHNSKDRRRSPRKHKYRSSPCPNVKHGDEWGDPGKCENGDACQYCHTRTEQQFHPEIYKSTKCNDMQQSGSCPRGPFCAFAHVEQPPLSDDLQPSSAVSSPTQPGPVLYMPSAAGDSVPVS
| Sequence | bound/input enrichment |
| --- | --- |
| CAUGUAUCUGCAGUGCUUGAUGUGGAUUACUCUCCCACUGGGAAGGAGUUUGUGUCUGCUAGUUUCGAUAAAUCUAUUCGAAUCUUUCCUGUAGACAAAAGUCGAAGCAGGGAGGUAUAU | 0.387 ratio |
| GCGCCGAGUACUCGUGCCCCCAAACCCUCCCGGAGUCUCUCUGGCUCACUUUGUGCCCUGUUUUCUGAUGCAGACUCGGGAUCCGGGAUGAAGGCGGAGCUUCCCCCUGGGCCUGGGGCA | 0.172 ratio |
| AGGCCAAAUCAGAACCGGUGCAUAGUAAUACUGCGUGAGAUAUCGGAGUCUACCCCCGUGGAAGAAGUAGAAGCACUAUUUAAAGGAGAUAAUUUACCAAAAUUUAUAAACUGUGAAUUU | 0.979 ratio |
| GUGGAGGGCGCCAUCUAUGGUGUGGAUGGGAAACUGCUCCAGCUCCAAGAGGUUUUUCAGCUCUUUGACAACGCCAACUGCCCAAGCCUACAGAACAAACCAAAAAUGUUCUUCAUCCAG | 0.115 ratio |
| GACAUGCUGUACACUGAGACAGACUUGGAAGAAAGCAUGGACAAAAUCGAAACCAUCAAUUUUCAUGAAGUUAAGGAAGUUGCAGGAAUCAAGUUCUGGUGUUACCAUGCCGGCCACGUC | 0.141 ratio |
| CGCGGAUUUUUUUUGAGGAUUCCCCCCCUCACCUUUUUUCAUUUUUCUCCCCUCGGGGCUCUUUUGUGACUCUCCCCAACCCCAACCCUCCGCCUUUAUGUUCGCCCAGACCUCCACCCG | 2.08 ratio |
| CAGUGGUAUUAAUGGAUGGCAUUAUGUUUGGAGGCAGCAGCAUAGAGGACUGUUGUUUAUAGAGAAAAGAUUUGGGAAGGACUGUUUACAAUGUGGGUCAGCCUGAAGCCUGGGCACUUU | 1.78 ratio |
| AAUCGAAUUACAGCUGCCUCCCAGGAACAUGGCUUAAAGUACCCAGCAUUCAUUGUCAACUUAAUUAAGUGCCAGGUGGAGCUCAACAGGAAAGUUCUUGUGGACCUGGCCAUCUAUGAA | 0.152 ratio |
| UCUGGCUUAGAUAAUAUGGCUACACACUUAAGUCAACAUAAAACUCAUACUUGCCAAGUUGUAAUGCAGAAAGUUUCUGUUUGUAUCCCAACUUCUGAGCACCUUUCUGAAUUAAAAAAA | 0.313 ratio |
| UACCAGGCCAUCCGUAGUGGGGAAUGCCCCGCGGCCCUUGUGGGUGGGAUCAACCUGCUCCUGAAGCCGAACACCUCUGUGCAGUUCAUGAAGCUGGGCAUGCUCAGCCCGGACGGCACC | 0.0435 ratio |
| UCUUCAAUUAUUGGAGAAAACAAGAAUUAUCUAGAACUUAGUAAGUUAUUAAAAAAGAAAGGAACUUCUACAUUUCUUCAAAGAUUGGAACGAGGAGAUCCAGUCACCAUAGCAUCACAA | 6.79 ratio |

Study 3 — method: protein binding microarray; molecule type: double-stranded DNA, one strand shown; medium: in vitro; tested at: not given; reference: not given; direction: higher = stronger binding
Target: Histone acetyltransferase KAT6A, winged helix 1, GST fusion (KAT6A, Homo sapiens, UniProt Q92794, residues 1-85)
Setting: 8-mer, flanks averaged, mean of 2 arrays, mostly near background
Target sequence (chain): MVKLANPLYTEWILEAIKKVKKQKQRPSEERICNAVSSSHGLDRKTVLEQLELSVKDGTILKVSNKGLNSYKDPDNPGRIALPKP
| Sequence | E-score |
| --- | --- |
| GATGCATA | -0.0612 |
| AAGGTTAA | -0.0575 |
| AGAGAGTA | -0.0743 |
| GACCCCAC | -0.216 |
| AACATGAG | 0.0264 |
| ACATCTGC | -0.074 |
| GCGTTTAA | 0.115 |
| CGGGTGTC | 0.217 |
| AGAGCGAC | 0.0948 |
| ACCCCGAG | 0.0227 |
| AGGCACTG | -0.211 |
| GATTTTAC | -0.137 |
| AAAATCTG | -0.25 |
| ATGTACCG | 0.197 |
| GGTAGGAC | 0.0179 |

Single results of other studies
| Substance | target | assay | system | conditions | how to read | endpoint | result |
| --- | --- | --- | --- | --- | --- | --- | --- |
| PhoQ, residues 284 288 289 292 302 303 SSCCRF | PhoP, residues 12 14 15 18 19 NFCKL (Escherichia coli, UniProt P23836) | Sort-seq, refers to: YFP reporter | E. coli | PhoQ-PhoP variant library, added: 10 µM Mg2+ | reference: high Mg2+ state, higher = stronger signaling | fold induction | 14.2 |

Excerpt of the above (study 3):
| Sequence | E-score |
| --- | --- |
| ACATCTGC | -0.074 |
| GCGTTTAA | 0.115 |
| CGGGTGTC | 0.217 |
| AGAGCGAC | 0.0948 |
| ACCCCGAG | 0.0227 |
| AGGCACTG | -0.211 |
